Published values gathered from unrelated publications.
Protocols differ between the studies behind these lines. ± marks the error that the study gave.
TDP1: Tyrosyl-DNA phosphodiesterase 1 (TDP1, Homo sapiens, UniProt Q9NUW8)
Sequence of UniProt Q9NUW8 (whole entry, looked up): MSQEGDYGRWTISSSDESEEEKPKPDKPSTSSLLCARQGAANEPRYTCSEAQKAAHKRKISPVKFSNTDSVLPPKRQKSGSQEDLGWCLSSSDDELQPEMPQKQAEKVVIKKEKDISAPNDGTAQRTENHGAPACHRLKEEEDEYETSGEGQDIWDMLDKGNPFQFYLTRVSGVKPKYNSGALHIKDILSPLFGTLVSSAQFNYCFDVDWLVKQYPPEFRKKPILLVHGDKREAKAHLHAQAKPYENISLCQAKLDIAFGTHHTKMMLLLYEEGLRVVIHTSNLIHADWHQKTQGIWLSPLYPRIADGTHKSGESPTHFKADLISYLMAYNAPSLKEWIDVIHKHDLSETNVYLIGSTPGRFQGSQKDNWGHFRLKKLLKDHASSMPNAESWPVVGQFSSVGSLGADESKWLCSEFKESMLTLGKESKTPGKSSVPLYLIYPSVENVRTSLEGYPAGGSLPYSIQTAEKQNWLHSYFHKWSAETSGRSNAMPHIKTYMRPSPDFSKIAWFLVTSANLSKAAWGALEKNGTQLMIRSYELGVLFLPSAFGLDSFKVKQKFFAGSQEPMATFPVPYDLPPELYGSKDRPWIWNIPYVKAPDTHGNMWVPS

Compound | tested on | test | test system | setting | quantity | value
CCN(C(=O)c1cc(F)ccc1Oc1nncnc1N1CCC2(C1)CN([C@H](CCCN(C)CCOC)C(C)C)C2)C(C)C | MOLM-14 (KMT2A-AF9, FLT3-ITD) | cell growth, live-cell imaging, spheroid-like | – | 8 days | IC50 | 0.036 ± 0.095 µM
O=C(O)c1ccc(Nc2c(-c3ccccc3)nc3ccc(CON=Cc4ccc(O)c5ncccc45)cn23)cc1 | TDP1 | enzyme activity, inhibitor | – | 100 µM, unpurified compound | inhibition | 25.6%
CC(C)c1ccc(N(C)c2ccc3c(c2)OCC[C@H]3CNc2cnccc2C(=O)O)cc1 | SKMEL31 | cell viability, CellTiter-Glo | skin | 7 days | IC50 | ≥ 10 µM
O=C(c1ccnc(N2Cc3cn(Cc4ccc(F)cc4)nc3C2)n1)N1CCCCC1 | HEK293 expressing GluA1 and GluA2 | glutamate excitotoxic cell death, CellTox Green | – | with: glutamate | IC50 | 0.0024 µM
O=C(NCCOCCNC(=O)c1cc2ccccc2c2ccccc12)c1cc(C(=O)N2CCNCCNCCNCC2)c(O)c(C(=O)N2CCNCCNCCNCC2)c1 | 2C6 normal pancreas | cell viability, MTT | – | 24 h | IC50 | > 1000 µM
CCOc1cncc(-c2ccc(NC(=O)C3(c4ccnc(NS(=O)(=O)C5CC5)n4)CCOCC3)nc2)n1 | Capan-2 | cell growth or viability, ATP luminescence | – | 72 h | IC50 | 0.091 µM
CNS(=O)(=O)Nc1nccc(Cc2c(C)c3ccc(Oc4ncccc4F)cc3oc2=O)c1F | HS852T | cell viability, CellTiter-Glo | – | 7 days | IC50 | 0.296 µM
Cn1ncc(-c2ccc3c(=O)[nH]nc(CN)c3c2)c1-c1c(F)c(Cl)cc(OC2CC2)c1C#N | DOHH-2 | cell viability, inhibitor, CellTiter-Glo | – | 120 h, baseline-subtracted | IC50 | 0.06 µM
N#Cc1cncc(N2Cc3cn(Cc4ccc(F)cc4)nc3C2)n1 | HEK293 expressing GluA1 and GluA2 | glutamate excitotoxic cell death, CellTox Green | – | with: glutamate | IC50 | 0.771 µM
COc1cc(N2CCCC2)ccc1C=NOCc1ccc2nc(-c3ccccc3)c(Nc3ccc(C(=O)O)cc3)n2c1 | TDP1 | enzyme activity, inhibitor | – | 100 µM, unpurified compound | inhibition | 35.6%
NC(=O)c1ccc(-c2ccccc2Cl)c2c3c([nH]c12)CCC(N)C3 (centres unmarked) | SGC-7901 | cell growth or viability | – | 96 h | IC50 | 0.0399 µM
O=C(c1cccc(N2Cc3cn(Cc4ccc(F)cc4)nc3C2)c1)N1CCCCC1 | HEK293 expressing GluA1 and GluA2 | glutamate excitotoxic cell death, CellTox Green | – | with: glutamate | IC50 | 0.079 µM
CN1CCC(N[C@H]2CCc3[nH]c4c(C(N)=O)ccc(-c5ccccc5Cl)c4c3C2)CC1 | RKO | cell growth or viability | – | – | IC50 | 0.826 µM
Fc1ccc(Cn2ncc3c2CN(c2nccc(NC4CC4)n2)C3)cc1 | HEK293 expressing GluA1 and GluA2 | glutamate excitotoxic cell death, CellTox Green | – | with: glutamate | IC50 | 4 µM
